Results collected from several papers.
“And” joins repeats or separate records; there may be more than shown. Numbers after ± are the reported error.
ROP18: ROP18 (Toxoplasma gondii, UniProt Q2PAY2)
UniProt P81908, sequence (whole entry, looked up): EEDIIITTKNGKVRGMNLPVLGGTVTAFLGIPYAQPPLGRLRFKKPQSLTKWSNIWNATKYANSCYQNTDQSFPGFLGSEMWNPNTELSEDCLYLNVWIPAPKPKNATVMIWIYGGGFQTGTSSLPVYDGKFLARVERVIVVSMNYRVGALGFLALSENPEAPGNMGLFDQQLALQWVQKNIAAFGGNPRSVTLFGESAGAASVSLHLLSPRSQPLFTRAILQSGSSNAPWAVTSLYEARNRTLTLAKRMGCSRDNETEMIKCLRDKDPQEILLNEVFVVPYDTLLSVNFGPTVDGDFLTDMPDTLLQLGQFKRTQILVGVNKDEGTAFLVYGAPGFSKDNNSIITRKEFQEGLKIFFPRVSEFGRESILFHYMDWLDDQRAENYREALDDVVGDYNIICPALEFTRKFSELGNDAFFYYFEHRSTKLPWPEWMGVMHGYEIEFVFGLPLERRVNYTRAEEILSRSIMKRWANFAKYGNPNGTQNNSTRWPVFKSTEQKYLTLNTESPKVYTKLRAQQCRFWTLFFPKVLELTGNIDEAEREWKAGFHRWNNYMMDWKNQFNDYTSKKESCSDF
UniProt P06276, sequence (whole entry, looked up): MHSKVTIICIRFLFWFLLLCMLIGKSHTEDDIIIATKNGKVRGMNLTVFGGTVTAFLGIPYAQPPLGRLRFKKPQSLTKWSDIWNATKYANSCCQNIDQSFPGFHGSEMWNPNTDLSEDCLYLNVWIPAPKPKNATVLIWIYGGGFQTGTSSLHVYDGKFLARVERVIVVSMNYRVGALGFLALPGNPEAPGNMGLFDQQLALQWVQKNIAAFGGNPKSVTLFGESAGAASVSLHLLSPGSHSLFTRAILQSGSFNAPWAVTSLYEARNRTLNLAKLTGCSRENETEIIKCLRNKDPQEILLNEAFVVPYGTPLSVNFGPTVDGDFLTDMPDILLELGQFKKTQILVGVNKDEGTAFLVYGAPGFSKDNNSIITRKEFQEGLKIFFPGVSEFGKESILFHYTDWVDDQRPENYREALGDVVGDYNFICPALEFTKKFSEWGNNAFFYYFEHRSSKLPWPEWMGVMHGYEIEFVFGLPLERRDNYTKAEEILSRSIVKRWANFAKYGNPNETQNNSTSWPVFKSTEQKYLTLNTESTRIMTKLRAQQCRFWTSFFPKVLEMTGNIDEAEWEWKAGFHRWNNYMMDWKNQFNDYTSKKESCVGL
UniProt Q2PAY2, sequence (whole entry, looked up): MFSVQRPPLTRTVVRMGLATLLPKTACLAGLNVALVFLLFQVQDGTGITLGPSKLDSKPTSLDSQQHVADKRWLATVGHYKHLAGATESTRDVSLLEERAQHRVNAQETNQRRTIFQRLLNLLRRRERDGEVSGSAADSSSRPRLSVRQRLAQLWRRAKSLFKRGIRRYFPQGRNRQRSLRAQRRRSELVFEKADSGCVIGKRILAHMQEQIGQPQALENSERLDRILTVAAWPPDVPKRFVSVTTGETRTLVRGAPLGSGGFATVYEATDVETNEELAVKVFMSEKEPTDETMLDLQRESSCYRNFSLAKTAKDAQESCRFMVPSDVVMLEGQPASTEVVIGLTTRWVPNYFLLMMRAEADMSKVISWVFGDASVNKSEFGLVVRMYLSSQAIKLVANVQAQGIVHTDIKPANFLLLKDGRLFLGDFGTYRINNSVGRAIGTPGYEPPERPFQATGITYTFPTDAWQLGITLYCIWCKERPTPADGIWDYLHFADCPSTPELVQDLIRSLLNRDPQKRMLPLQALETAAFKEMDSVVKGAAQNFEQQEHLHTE
UniProt O88704, sequence (whole entry, looked up): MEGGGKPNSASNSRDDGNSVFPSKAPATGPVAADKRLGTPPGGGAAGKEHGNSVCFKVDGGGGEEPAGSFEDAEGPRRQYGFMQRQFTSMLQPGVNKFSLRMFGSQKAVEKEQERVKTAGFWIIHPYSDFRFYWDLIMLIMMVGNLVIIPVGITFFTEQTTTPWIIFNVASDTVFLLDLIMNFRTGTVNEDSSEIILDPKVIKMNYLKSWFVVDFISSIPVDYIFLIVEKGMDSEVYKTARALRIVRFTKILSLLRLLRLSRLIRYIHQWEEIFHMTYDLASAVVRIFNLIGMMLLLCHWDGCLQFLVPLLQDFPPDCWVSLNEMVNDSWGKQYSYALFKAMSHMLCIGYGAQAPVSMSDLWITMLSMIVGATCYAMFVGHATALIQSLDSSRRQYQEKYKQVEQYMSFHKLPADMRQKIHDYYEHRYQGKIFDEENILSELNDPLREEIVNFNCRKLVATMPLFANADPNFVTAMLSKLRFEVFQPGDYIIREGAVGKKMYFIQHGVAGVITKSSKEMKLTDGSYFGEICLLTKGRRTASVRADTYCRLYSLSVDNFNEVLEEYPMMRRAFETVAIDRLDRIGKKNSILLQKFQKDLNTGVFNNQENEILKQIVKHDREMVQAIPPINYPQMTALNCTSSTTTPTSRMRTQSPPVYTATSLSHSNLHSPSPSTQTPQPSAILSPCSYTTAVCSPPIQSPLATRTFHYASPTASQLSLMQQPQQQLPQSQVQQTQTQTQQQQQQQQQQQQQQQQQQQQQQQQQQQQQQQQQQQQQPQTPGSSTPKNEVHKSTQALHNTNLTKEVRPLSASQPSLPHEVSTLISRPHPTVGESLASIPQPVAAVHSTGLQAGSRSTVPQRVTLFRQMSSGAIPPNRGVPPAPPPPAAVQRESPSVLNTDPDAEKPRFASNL
UniProt P12956, sequence (whole entry, looked up): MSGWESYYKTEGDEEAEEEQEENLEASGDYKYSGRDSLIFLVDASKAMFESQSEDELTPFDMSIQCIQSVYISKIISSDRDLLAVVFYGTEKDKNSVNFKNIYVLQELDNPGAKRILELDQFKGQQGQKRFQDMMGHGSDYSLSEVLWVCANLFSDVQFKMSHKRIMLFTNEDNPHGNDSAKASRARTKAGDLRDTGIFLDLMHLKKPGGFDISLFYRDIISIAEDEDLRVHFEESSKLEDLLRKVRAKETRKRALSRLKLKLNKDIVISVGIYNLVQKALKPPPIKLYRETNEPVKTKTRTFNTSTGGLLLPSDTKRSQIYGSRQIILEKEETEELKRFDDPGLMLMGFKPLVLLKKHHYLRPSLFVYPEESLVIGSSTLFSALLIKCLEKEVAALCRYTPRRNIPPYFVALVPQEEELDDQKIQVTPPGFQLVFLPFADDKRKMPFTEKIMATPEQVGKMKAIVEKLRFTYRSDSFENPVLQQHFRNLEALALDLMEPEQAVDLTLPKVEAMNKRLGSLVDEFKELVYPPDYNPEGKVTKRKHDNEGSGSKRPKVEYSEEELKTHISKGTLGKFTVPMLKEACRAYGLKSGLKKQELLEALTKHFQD
UniProt P39135, sequence (whole entry, looked up): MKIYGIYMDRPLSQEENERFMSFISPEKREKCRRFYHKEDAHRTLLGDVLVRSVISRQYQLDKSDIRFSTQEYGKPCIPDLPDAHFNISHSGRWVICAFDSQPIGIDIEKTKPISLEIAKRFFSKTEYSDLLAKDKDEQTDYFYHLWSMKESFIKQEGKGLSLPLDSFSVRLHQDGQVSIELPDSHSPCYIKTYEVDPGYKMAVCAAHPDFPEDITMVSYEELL
UniProt Q53H47, sequence (whole entry, looked up): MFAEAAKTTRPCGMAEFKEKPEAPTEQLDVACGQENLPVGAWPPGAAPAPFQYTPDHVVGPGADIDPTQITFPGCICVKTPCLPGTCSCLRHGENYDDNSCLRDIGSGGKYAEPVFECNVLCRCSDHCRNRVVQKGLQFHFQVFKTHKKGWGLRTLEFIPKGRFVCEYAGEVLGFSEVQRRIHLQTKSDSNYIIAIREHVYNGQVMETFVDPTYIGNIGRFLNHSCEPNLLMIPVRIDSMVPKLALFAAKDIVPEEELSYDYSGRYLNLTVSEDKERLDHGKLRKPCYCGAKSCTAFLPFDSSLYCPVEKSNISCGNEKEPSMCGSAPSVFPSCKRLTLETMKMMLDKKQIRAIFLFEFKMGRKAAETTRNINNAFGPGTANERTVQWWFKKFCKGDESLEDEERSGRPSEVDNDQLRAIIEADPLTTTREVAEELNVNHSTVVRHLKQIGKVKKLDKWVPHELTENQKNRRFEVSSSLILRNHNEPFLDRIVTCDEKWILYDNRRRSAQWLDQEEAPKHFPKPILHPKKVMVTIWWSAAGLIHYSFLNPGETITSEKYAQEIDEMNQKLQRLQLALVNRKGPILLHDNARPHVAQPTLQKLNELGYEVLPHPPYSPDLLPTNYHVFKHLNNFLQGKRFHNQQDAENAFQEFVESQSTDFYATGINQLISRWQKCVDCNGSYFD
UniProt P04062, sequence (whole entry, unmodified, looked up): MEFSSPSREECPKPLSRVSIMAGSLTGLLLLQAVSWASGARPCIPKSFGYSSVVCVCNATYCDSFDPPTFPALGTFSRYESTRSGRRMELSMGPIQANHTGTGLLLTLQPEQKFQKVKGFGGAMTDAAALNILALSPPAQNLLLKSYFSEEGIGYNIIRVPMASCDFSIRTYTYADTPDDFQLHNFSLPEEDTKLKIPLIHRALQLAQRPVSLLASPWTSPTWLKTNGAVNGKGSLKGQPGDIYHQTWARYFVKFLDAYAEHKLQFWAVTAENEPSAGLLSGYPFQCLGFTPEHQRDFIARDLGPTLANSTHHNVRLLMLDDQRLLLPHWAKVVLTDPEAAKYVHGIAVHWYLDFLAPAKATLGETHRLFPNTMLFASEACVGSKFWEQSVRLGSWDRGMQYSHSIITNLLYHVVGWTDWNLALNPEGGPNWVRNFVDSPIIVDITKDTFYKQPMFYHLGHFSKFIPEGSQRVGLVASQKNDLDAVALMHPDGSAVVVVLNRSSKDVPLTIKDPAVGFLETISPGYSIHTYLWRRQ
UniProt P22789, sequence (whole entry, looked up): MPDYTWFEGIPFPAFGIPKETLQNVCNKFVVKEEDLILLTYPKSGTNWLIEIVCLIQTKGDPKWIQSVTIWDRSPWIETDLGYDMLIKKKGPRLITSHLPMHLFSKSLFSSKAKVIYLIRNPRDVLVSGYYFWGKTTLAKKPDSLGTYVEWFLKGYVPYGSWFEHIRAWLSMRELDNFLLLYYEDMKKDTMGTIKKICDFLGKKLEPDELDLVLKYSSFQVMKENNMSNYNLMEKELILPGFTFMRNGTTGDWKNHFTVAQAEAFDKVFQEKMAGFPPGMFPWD

| Molecule | target or system | assay | test system | conditions | measurement | result |
| --- | --- | --- | --- | --- | --- | --- |
| CC(C)(COP(=O)(O)OP(=O)(O)OC[C@H]1O[C@@H](n2cnc3c(N)ncnc32)[C@H](O)[C@@H]1OP(=O)(O)O)[C@@H](O)C(=O)NCCC(=O)NCCS | sfp (Bacillus subtilis, UniProt P39135) | phosphopantetheinylation, inhibitor, fluorescence polarization |  | 45 min, pH 7.6, 10% DMSO, added: VibB 10 µM and rhodamine-CoA 5 µM | IC50 | 8 ± 1 µM |
| Oc1ccc(-c2cc(Cl)ccc2Cl)cc1 | Sulfotransferase 2A6 (Sult2a6, Rattus norvegicus, UniProt P22789) | enzyme activity, inhibitor |  | 6 min, 37 °C, added: DHEA 10 µM | IC50 | 190 µM |
| COc1cc2c(cc1O)CC[n+]1cc3c(OC)c(OC)ccc3c(C)c1-2 | D(3) dopamine receptor (DRD3, Homo sapiens, UniProt P35462) | calcium mobilization, antagonist, FLIPR | HEK293T with Galpha15 | 10 min preincubation, D3 receptor, added: dopamine at EC50 | IC50 | 2.4 µM |
| N#CCCc1ccc2c(c1)-c1[nH]c3ccc([N+](=O)[O-])cc3c1CC(=O)N2 | Putative glycogen synthase kinase (Leishmania major, UniProt Q4QE15, D105E) | enzyme activity, inhibitor |  | 90 min, 30 °C, added: ATP 2 µM | IC50 | 4.76 µM |
| C/C=C1\NC(=O)[C@@H](NC(=O)[C@@H](NC(=O)[C@H](C)NC(=O)C/C(C)=C/Cl)C(C)C)[C@@H](C)OC(=O)[C@H](C(C)C)NC(=O)[C@H](Cc2ccc(O)cc2)N(C)C(=O)[C@H](Cc2ccccc2)N2C(=O)[C@H](CC[C@H]2O)NC1=O | Proteinase K (PROK, Engyodontium album, UniProt P06873) | enzyme activity, inhibitor, fluorescence |  | pH 7.4 | IC50 | 0.0876 µM |
| O=c1[nH]c2ccccc2c(=O)o1 | X-ray repair cross-complementing protein 6, with Ku80 (Homo sapiens, UniProt P12956) | Ku70-Ku80 heterodimerization, co-immunoprecipitation |  | 1 h preincubation, 23 °C | IC50 | 3.2 µM |
| O=C(NCCCCCn1ccc2ccc(F)cc21)Oc1ccccc1 | Cholinesterase (BCHE, Equus caballus, UniProt P81908) | enzyme activity, inhibitor, HPLC |  |  | IC50 | ~4 µM and 4.3 µM |
| O=C(O)c1ccccc1Nc1ccc(Cc2ccccc2)cc1 | Androgen receptor (AR, Homo sapiens, UniProt P10275) | reporter gene, antagonist, MMTV-Luc reporter | MDA-kb2 | 20 h, added: 8 nM DHT (EC90) | IC50 | > 100 µM |
| CN1C(=O)[C@]23SS[C@@]1(C)C(=O)N2[C@H]1Nc2ccccc2[C@@]1([C@@]12c4ccccc4N[C@@H]1N1C(=O)[C@@]4(C)SS[C@]1(C(=O)N4C)[C@H]2O)[C@@H]3O | Histone-lysine N-methyltransferase SETMAR (Homo sapiens, UniProt Q53H47) | enzyme activity, inhibitor, radiometric |  |  | IC50 | > 10 µM |
| c1ccc(OCC2CCCN2)nc1 (centres unmarked) | Neuronal acetylcholine receptor; alpha4/beta2 (Rattus norvegicus, UniProt P09483+P12390) | ligand displacement, radioligand |  | cell membranes | IC50 | 115 µM |
| CN[C@@](C)(C[18F])C(=O)O |  |  | SCID mouse SK-OV-3 xenograft, brain | 30 min, post injection | tissue uptake | 0.3 ± 0.1 %ID/g |
| O=C([O-])c1ccccc1-c1c2cc(Br)c(=O)cc-2oc2[c]([Hg+])c([O-])c(Br)cc12.[Na+].[Na+].[OH-] | N-lysine methyltransferase KMT5A (KMT5A, Homo sapiens, UniProt Q9NQR1) | enzyme activity, inhibitor |  |  | IC50 | 4.2 µM |
| CN1CC[C@@]2(C)c3cc(OC(=O)Nc4ccccc4)ccc3N(C)[C@@H]12 | Cholinesterase (BCHE, Homo sapiens, UniProt P06276) | enzyme activity, inhibitor, immobilized enzyme reactor, HPLC-UV | immobilized recombinant human enzyme | inhibition plateau, L-tartrate salt | IC50 | 4.61 ± 0.14 µM |
| CC(=O)OC[C@H]1O[C@@H]([S-])[C@H](OC(C)=O)[C@@H](OC(C)=O)[C@@H]1OC(C)=O.CCP(CC)CC.[Au+] | ERRα (human) | reporter gene, antagonist, luciferase reporter qHTS |  |  | IC50 | 1.68 µM |
| COc1c(Br)cc(C(c2c(O)c3ccccc3oc2=O)c2c(O)c3ccccc3oc2=O)cc1Br | Alpha-glucosidase MAL12 (MAL12, Saccharomyces cerevisiae S288c, UniProt P53341) | enzyme activity, inhibitor, absorbance |  | pH 6.9 | IC50 | 3.31 µM |
| CC(C)c1cccc(C(C)C)c1N=C=O | Potassium/sodium hyperpolarization-activated cyclic nucleotide-gated channel 1 (Hcn1, Mus musculus, UniProt O88704) | channel gating (V1/2 shift), inhibitor, two-electrode voltage clamp | Xenopus oocytes |  | IC50 | 43.7 ± 3.8 µM |
| CC(=O)OC[C@H]1O[C@@H]([S-])[C@H](OC(C)=O)[C@@H](OC(C)=O)[C@@H]1OC(C)=O.CCP(CC)CC.[Au+] | Thioredoxin glutathione reductase (Schistosoma mansoni, UniProt Q962Y6) | glutathione reductase activity, inhibitor |  | 10 min preincubation with NADPH, added: 100 µM GSSG | IC50 | 0.0054 µM |
| CCc1c(C(=O)C(N)=O)c2c(OCC(=O)O)cccc2n1Cc1ccccc1 | Phospholipase A2 group V (PLA2G5, Homo sapiens, UniProt P39877) | enzyme activity, LC-MS mixed micelle, refers to: lysophosphatidylglycerol |  | added: PAPG substrate | IC50 | 2.14 µM |

| Molecule | target or system | assay | test system | conditions | measurement | result |
| --- | --- | --- | --- | --- | --- | --- |
| C[C@]12O[C@H](C[C@]1(O)C(=O)O)n1c3ccccc3c3c4c(c5c6ccccc6n2c5c31)CNC4=O | Leucine-rich repeat serine/threonine-protein kinase 2 (LRRK2, Homo sapiens, UniProt Q5S007) | LRRKtide phosphorylation, inhibitor |  | 25 °C, added: 1 µM ATP | IC50 | ~0.05 µM |
| CC1=C(C(=O)NC(=O)c2cnccn2)C(c2ccccc2)NC(=S)N1 (centres unmarked) | Cholinesterase (BCHE, Equus caballus, UniProt P81908) |  |  |  | IC50 | 6.75 ± 0.01 µM |
| echistatin | Integrin alpha-V/beta-3 (Homo sapiens, UniProt P05106+P06756) | inhibitor, solid-phase binding |  | added: vitronectin | IC50 | 0.004 µM |
| NS(=O)(=O)c1ccc(NN=C2C(=O)Nc3ccc(C(=O)NCc4ccncc4)cc32)cc1 | ROP18 | enzyme activity, inhibitor |  |  | IC50 | 8.13 µM |
| COc1ccc(NC(=O)N2CCCCN3[C@H](COCCC(=O)O)[C@H](c4ccc(C#Cc5ccccc5)cc4)[C@@H]3C2)cc1 | Phenylalanine--tRNA ligase alpha subunit (Plasmodium falciparum, UniProt Q8I246) | aminoacylation activity, inhibitor |  |  | IC50 | 0.029 µM |
| C=CC=O | Thioredoxin reductase 2, mitochondrial (Txnrd2, Mus musculus, UniProt Q9JLT4) | enzyme activity, inhibitor |  | 10 min, pH 7, 22 °C, pre-reduced enzyme, added: Trx 150 µM | IC50 | 0.231 µM |
| C#CCN1CCN(CCCOc2cccc3ccc(C=O)nc23)CC1 | Cholinesterase (BCHE, Homo sapiens, UniProt P06276) | enzyme activity, inhibitor, Ellman |  |  | IC50 | 0.0015 µM |
| COc1ccc(NC(=O)Nc2nc(SCC(=O)C(C)(C)C)ns2)cc1 | ROP18 | enzyme activity, inhibitor |  |  | IC50 | > 10 µM |
| CCC(=O)Nc1cc(Nc2cc(NC3CC3)n3ncc(C#N)c3n2)ccc1N1CCCC(N)C1 (centres unmarked) | Casein kinase II subunit alpha' (CSNK2A2, Homo sapiens, UniProt P19784) | target engagement in cells, BRET |  |  | IC50 | 0.0158 µM |
| C[N+]1(C)CCC(OC(=O)C(c2ccccc2)c2ccccc2)CC1 | Lysosomal acid glucosylceramidase (GBA1, Homo sapiens, UniProt P04062, R534H) | enzyme activity, inhibitor |  | pH 5.9, 1.9 nM enzyme, added: 30 µM resorufin β-glucoside | IC50 | 8.74 µM |
| CCCCCCCCCCCCC/C=C/[C@@H](O)[C@@H](N)COP(=O)(O)OCC[N+](C)(C)C | Ryanodine receptor 1 (RYR1, Oryctolagus cuniculus, UniProt P11716) | [3H]ryanodine binding, radioligand binding | skeletal SR vesicles | oxidizing, no calmodulin, added: 5 mM GSSG, 50 µM free Ca2+ | IC50 | 25.5 ± 4 µM |
| Cc1nc2ccccc2c2cc[nH]c12 | human PDE4 from U-937 cells | enzyme activity, inhibitor |  | 20 min, pH 7.5, 25 °C, added: [3H]cAMP 1.10 µM | IC50 | > 100 µM |
| O=C(CNC(=S)NN=Cc1ccc([N+](=O)[O-])cc1)c1ccc(-c2ccccc2)cc1 | Cholinesterase (BCHE, Equus caballus, UniProt P81908) | enzyme activity, inhibitor, Ellman method |  | added: butyrylthiocholine iodide | IC50 | 212.25 ± 0.09 µM |
| O=C(NCCCCn1ccc2ccc(F)cc21)Oc1ccccc1 | Cholinesterase (BCHE, Equus caballus, UniProt P81908) | enzyme activity, inhibitor, HPLC |  |  | IC50 | 7.3 µM |
| CC(C)(C)OC(=O)[C@H](CCCCNC(=O)c1ccc(CNC(=N)N)c(I)c1)NC(=O)CCCCCCC(=O)NCCCC[C@H](NC(=O)N[C@@H](CCC(=O)O)C(=O)O)C(=O)O | Glutamate carboxypeptidase 2 (FOLH1, Homo sapiens, UniProt Q04609) | enzyme activity, inhibitor, fluorescence |  | lysate | IC50 | 0.00088 µM |
| Nc1ncnc2c1c(-c1cnc3[nH]ccc3c1)nn2C1CCCC1 | Serine/threonine-protein kinase 24 (STK24, Homo sapiens, UniProt Q9Y6E0) | enzyme activity, inhibitor, radiometric |  |  | IC50 | 0.086 µM |
| CSCC[C@H](NC(=O)[C@H](C)N)C(=O)N[C@@H](CCCNC(=N)N)C(=O)N[C@@H](CCC(N)=O)C(=O)N[C@H](C(=O)N[C@@H](Cc1c[nH]cn1)C(=O)N[C@@H](CC(N)=O)C(=O)N[C@@H](Cc1ccccc1)C(=O)N[C@@H](Cc1ccccc1)C(=O)N[C@@H](Cc1ccccc1)C(=O)N[C@@H](CC(N)=O)C(=O)N[C@@H](Cc1ccccc1)C(=O)N[C@@H](Cc1ccccc1)C(=O)N[C@@H](CCCCN)C(=O)N[C@@H](CCCNC(=N)N)C(=O)N[C@@H](CCCNC(=N)N)C(=O)O)[C@@H](C)O | histidine kinase ComD (Streptococcus pneumoniae serotype 4, UniProt A0A0H2US84) | reporter gene, antagonist | Streptococcus pneumoniae, TIGR4 comX::lacZ | 30 min, 37 °C, added: CSP2 250 nM | IC50 | > 10 µM |
